Measured values collected from several papers.
Lines come from different studies, so protocols differ.
Cell line: MIA PaCa-2

COC[C@@H](C)N[C@H]1CC[C@H](Nc2cc(-c3cccc(NCC4(C#N)CCOCC4)n3)c(Cl)cn2)CC1
protein level (immunoblot, item: MYC; concentration not given, 6 h): decreased

O=C(CSc1nc2ccccc2s1)Nc1nonc1[N+](=O)[O-]
GI50 (cell growth or viability, ATP luminescence): > 40000 nM

COc1ccc(-c2cc(COC3c4cc5c(cc4C(c4cc(OC)c(OC)c(OC)c4)C4C(=O)OCC34)OCO5)on2)cc1 (centres unmarked)
GI50 (cell growth or viability, SRB; 48 h): 170 nM

CN(C)c1ccc(/C=C/c2cc[n+](Cc3ccc(F)cc3)cc2)cc1
GI50 (cell growth or viability, ATP luminescence): 1900 nM

CS(=O)(=O)c1sc(NC(=O)Nc2ccc(Cl)cc2)c2c1C=CCC2
apoptotic cells (annexin V/PI flow cytometry; 80 µM, 72 h): 90.5%

O=C(Nc1ccc(Br)cc1)Nc1ccc2nc(-c3ccco3)c(-c3ccco3)nc2c1
phospho-IKKβ level (Western blot, item: p-IKKβ; concentration not given): decreased

CCCCCC[n+]1ccccc1/C=C/c1ccc(N(C)C)cc1
GI50 (cell growth or viability, ATP luminescence): 71 nM

COc1cc([C@@H]2c3cc4c(cc3[C@@H](OCc3cc(-c5ccc(C#N)cc5)no3)[C@H]3COC(=O)C23)OCO4)cc(OC)c1OC (some centres unmarked)
GI50 (cell growth or viability, SRB; 48 h): 4020 nM

Some of these lines once more:
COC[C@@H](C)N[C@H]1CC[C@H](Nc2cc(-c3cccc(NCC4(C#N)CCOCC4)n3)c(Cl)cn2)CC1
protein level (immunoblot, item: MYC; concentration not given, 6 h): decreased
